Measured values of several laboratories.
Numbered parts are unrelated; each lists some results of a single study. Changes are numbered by the printed parent chain.

Set 1 — method: DHFR PCA, deep sequencing; medium: yeast; added: (+)-ABA 4.8 µM; reference: wild-type fitted maximum; reading: higher = stronger binding
Target: ABI1, truncated, D143A, DHFR fusion (Arabidopsis thaliana)
Setting: methotrexate growth selection, single substitutions
Starting sequence: PYL1, truncated, DHFR fusion (Arabidopsis thaliana); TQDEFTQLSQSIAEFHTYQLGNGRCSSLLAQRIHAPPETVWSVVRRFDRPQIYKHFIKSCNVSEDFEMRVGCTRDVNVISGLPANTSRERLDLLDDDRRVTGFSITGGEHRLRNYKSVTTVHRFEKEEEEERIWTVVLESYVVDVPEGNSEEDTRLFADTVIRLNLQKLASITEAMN
Variant | relative binding score
I33H | 18.9%
V118D | 0.315%
V78M | 58.5%
Y18E | 21.7%
T17Q | 47.5%
H16T | -4.87%
F56H | -2.71%
E89N | 7.25%
L112A | -10.4%
L112G | -9.34%
R123C | 58.4%
G107F | -0.177%
N149V | 21%
E130T | 79.5%
P36N | 58.9%
R113E | 52%
R88V | 76.6%
E131Q | 80.3%
D95N | 41.2%
R69D | 38.3%

Set 2 — method: universal PBM; molecule type: double-stranded DNA, one strand shown; medium: in vitro; tested at: not given; reading: higher = stronger binding
Target: Sal-like protein 4, full length isoform B (SALL4, Homo sapiens, UniProt Q9UJQ4-2, residues 1-616)
Setting: 8-mer, flanks averaged, mean of replicates
Oligonucleotide | E-score
CAGGGGCG | -0.402
AGTCCTAG | -0.0138
GCTCTGCC | -0.306
AGAGGCTG | -0.201
ATCCCGAA | -0.0172
AGGGTTTA | 0.0832
TAAGTAAA | 0.276
CCTTCATA | 0.241
AAGCCTAC | 0.0241
GGAATAGA | 0.105
GAAGGGGA | -0.202
ATCGAGCG | -0.168
ATTCGTCG | -0.0994
CGATATTC | 0.0621
CCCATGAG | -0.113
GTAGGATA | 0.0529
ATCAGTCG | 0.0342
ACTGGACC | -0.321
CATCTGAC | -0.0868

Set 3 — method: RNA Bind-n-Seq; molecule type: RNA; medium: in vitro; tested at: 365 nM; reference: no-protein control; reading: higher = stronger binding
Target: RNA binding protein fox-1 homolog 2, RRM domain, GST-SBP tag (RBFOX2, Homo sapiens, UniProt O43251-10, residues 100-194)
Setting: natural RNA segment, single round, ends assumed
Shared flanks, not repeated: GGGAGUUCUACAGUCCGACGAUC … UGGAAUUCUCGGGUGCCAA
Oligonucleotide | RBNS enrichment (R)
AUUUUCAACUUUAUAAAGAUAAAAUAUCCUCAGGGGUGGAGAAGUGUCGUUUUCAUAACUUGCUGAAUUUCAGGCAUUUUGUUCUACAUGAGGACUCAUAUAUUUAAGCC | 0.77
GGGGCCACUCCACCCUUAGGGAGCACAUGAAGAAGCUCCCUAAGAAGUUCUGCUCCUUAGCCAUCCUUUCCUGUAAUUUAUGUCUCUCCCUGAGGUGAGGUUCAGGUUUA | 0.504
AAGAUCCUAAAUGGCAGCCUUUCAGAUAGGCAUGUCUGACACCUGCUGAGGCCUCUACCAGUUCACUCUCUCCCUUGGAAGUGGAAUUCUACCCACCUAAACCCCCCAAA | 0.607
CUACUUGGAUAAAGAAUUUAAAUGGAAUUACGUAUAAAUUAAUAUAAAAUGAUUACCUCUGGUGUUGACAGGUUGAACUUGCACUCUUAAGGAACAGCCAUAACCCUCCG | 1.36
GAAAACACCCAUUUUGAUACAAUGUAAACGUUCGUGUUCACCCUUGGAUACAUGUUGAAAGAGCUCUUUGGUACACGGAAGUGACAUCUUUGGGGUCAGUGUUACGAGGU | 0.538
UCUUUUACUGUAAGUUACUUAAGAUCAUUUUUGGAAGCAGGCGUGGUAGAGUCCUGUAAAUGAAUGCUCUGGGCUAGAUACAGCUUGGAGAACCUGCUGGCCUUGUUAGA | 1.4
UCGAUUAAGAAAGAGCACUGGUGGCUGCUUUUCCAGAGAUCCUGAGUUCAAUUCCCAGCAACCACAUGAUGGUUCAUAAUGGGAUCUGAUGCCCUCUUCUGGCAUGCAGG | 1.76
AAGUGAAUGUUGUCUUUGGUCACAAUGCCUUUAAGUGUAGUUGUAGCUCAGAACUUUUUUUUUAGUAUUCAUAUCUAUUUACAUCUGUGUUUCCCAACAGAAGACAACUU | 0.948
UAUUUUGUCCAUGUUGGUGAUGUACUGUACUUCCCUUCCUUUUCUCUGCAUCCCCCAUCACCUCAUAGAAGACUCUUUGUUGAUCAUUGUAUGUUAAUAAUGUAUAAAAU | 20.6
AAACUGCUUCUGUAGUACCAUUUUGAUAUUAUGUCAGUUAUACAUAAUAUCUGACUAUUGUUUUCUAUUAAAUAUCAGAACCUUACUGGGUCUUUACACCUCUGUGAAGU | 1.29
AGUAAUGGGAUCACCUCACCAUGCCAUGCUCUGGGCUCUCCCUCUCUGUCCAUUUCUGUUUUGCUUUCCUGGCUAAACCCAUCUACCAUUCUUAACACUGGUAGCUCCUG | 0.707
AGGGUCCUUGGUCUCUUCAGGCCCUGAGCGGGGUCAGGCACUGGGACGCCUUCCCCGCCCUCGAGGCUUCCCGGCUCUCAGAGGCUCCUUUUUUCUCUCCUGCUCCAGGC | 0.457

Set 4 — target: CCND3, cyclin fold, Cln2 fusion (human); method: yeast growth competition, sequencing; medium: yeast; setting: weak parent motif; reference: not given; reading: higher = stronger binding
Starting sequence: BRCA2 docking peptide (human); CKKRRALDFLSRL
Variant | normalised enrichment score
K2A | 0.16
L7A | 0.164
R5K | -0.223
K3A | -0.00697
S11A | 0.166
F9A | 0.149
D8A | 0.123

Set 5 — target: UBE2L3 UBC core domain (UniProt P68036); method: yeast two-hybrid; medium: yeast; setting: mostly zero background; reference: not given; reading: higher = stronger interaction
UniProt P68036, sequence (whole entry, looked up): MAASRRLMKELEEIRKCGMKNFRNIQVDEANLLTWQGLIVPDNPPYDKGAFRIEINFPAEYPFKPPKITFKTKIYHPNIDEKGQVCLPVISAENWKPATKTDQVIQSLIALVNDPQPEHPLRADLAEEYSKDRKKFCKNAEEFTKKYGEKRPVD
B1: RNF10 RING domain (UniProt Q8N5U6); chain VRICSHEVPSCPICLYPPTAAKITRCGHIFCWACILHYLSLSEKTWSKCPICYSSVHKKDLKS
B2: RNF32 RING domain (UniProt Q9H0A6); chain VQALRRETHECSICLAPLSAAGGQRVGAGRRSREMALLSCSHVFHHACLLALEEFSVGDRPPFHACPLCRSCYQKKILEC
B3: RNF115 RING domain (UniProt Q9Y4L5); chain TQEQVDMGLECPVCKEDYTVEEEVRQLPCNHFFHSSCIVPWLELHDTCPVCRKSLNGEDSTR
B4: TRIM74 RING domain (UniProt Q86UV6); chain SLLELEDWLQCPICLEVFKESLMLQCGHSYCKGCLVSLSYHLDTKVRCPMCWQVVDGSSSLP
B5: TRIM32 RING domain (UniProt Q13049); chain NLDALREVLECPICMESFTEEQLRPKLLHCGHTICRQCLEKLLASSINGVRCPFCSKITRITSLTQ
B6: SHPRH RING domain (UniProt Q149N8); chain KTSGGVNPEPCPICARQLGKQWAVLTCGHCFCNECISIIIEQYSVGSHRSSIKCAICRQTTSHKEISY
Sequence | lacZ reporter activity
B1 (RNF10 RING domain) | 0
AAQLLEEKLTCAICLGLYQDPVTLPCGHNFCGACIRDWWDRCGKACPECREPFPDGAELR (TRIM65 RING domain (UniProt Q6PJ69)) | 0
B2 (RNF32 RING domain) | 0
B3 (RNF115 RING domain) | 0
B4 (TRIM74 RING domain) | 0
B5 (TRIM32 RING domain) | 0
EIKDYKARLTCPCCNMRKKDAVLTKCFHVFCFECVKTRYDTRQRKCPKCNAAFGANDFHR (RNF20 RING domain (UniProt Q5VTR2)) | 0
FLSKVEETFQCICCQELVFRPITTVCQHNVCKDCLDRSFRAQVFSCPACRYDLGRSYAMQ (UHRF1 RING domain (UniProt Q96T88)) | 0
B6 (SHPRH RING domain) | 0

For quick reference, copied from above (set 5):
Sequence | lacZ reporter activity
B2 (RNF32 RING domain) | 0
B3 (RNF115 RING domain) | 0
B4 (TRIM74 RING domain) | 0
B5 (TRIM32 RING domain) | 0
EIKDYKARLTCPCCNMRKKDAVLTKCFHVFCFECVKTRYDTRQRKCPKCNAAFGANDFHR (RNF20 RING domain (UniProt Q5VTR2)) | 0
